Experimental data gathered from unrelated publications.
Each line is one published result; not all experiments were run side by side. ± marks the error that the study gave.

CN(Cc1cccc(Cl)c1)Cc1cccc(CN(C)Cc2cccc(Cl)c2)n1
paw edema inhibition (mouse carrageenan paw edema; ip, 10 mg/kg daily, 74 h; baseline: vehicle): < 20%

Cn1cc(Nc2nccc(-c3ccc4c(c3)CN(C3COC3)CC[C@H]4NC(=O)c3cn(C(C)(C)C)nn3)n2)cn1
inhibition (CD69 expression; naive B cells, healthy human volunteers, whole blood ex vivo; oral, 50 mg twice daily, 48 h, with: anti-IgD; baseline: pre-dose): 66%

neuropeptide Y
time to peak tachycardia (Sprague Dawley rat, urethane-anaesthetised; intravenous, 5 nmol): 12.1 ± 3.9 min

O=C(CCCCCCC(=O)Nc1ccccc1)NO
median overall survival (human, refractory or recurrent neuroblastoma; dose not given, with: isotretinoin): 30.8 months

COc1ccc2c(c1)c(CC(=O)O)c(C)n2C(=O)c1ccc(Cl)cc1
cytokine level (multiplex bead immunoassay, refers to: IL-1β; CD-1 mice, serum; ip, 20 mg/kg, three-injection regimen, with: LPS 3 mg/kg): 4.9 ± 1.5 pg/mL

difelikefalin
NRS itch score change (Japanese haemodialysis patients with pruritus; intravenous, 0.5 µg/kg thrice weekly, week 8; baseline: baseline, direction not given): -3.65

CC(C)C[C@H](NC(=O)CCOCCOCCOCCNC(=O)COCC(=O)Nc1ccc(Oc2ccc3c4nc5nc(nc6[nH]c(nc7nc(nc([nH]4)c3c2)-c2cc(C(C)(C)C)ccc2-7)c2ccc(C(C)(C)C)cc62)-c2ccc(C(C)(C)C)cc2-5)cc1)C(=O)N[C@@H](C)C(=O)N[C@@H](CCCNC(=N)N)C(=O)N[C@@H](CC(C)C)C(=O)N[C@@H](CC(C)C)C(=O)N[C@H](C(N)=O)[C@@H](C)O
time to tumour visibility (near-IR fluorescence imaging; nude mice, A-431 xenograft; intravenous, 10 mg/kg): 24 h

CC(C)(O)CNc1nc(Nc2ccnc(C(F)(F)F)c2)nc(-c2cccc(C(F)(F)F)n2)n1
plasma 2-HG reduction AUEC0-24 (refers to: 2-hydroxyglutarate; human newly diagnosed mIDH AML; oral, 100 mg once daily, induction cycle 1 day 8, with: induction chemotherapy): 73.9%

COc1ccc(-c2nc3ccccc3s2)cc1OCc1nnc(C(c2ccccc2)c2ccccc2)o1
minimal effective dose (hind limb tonic extension; albino mouse, MES-induced seizure; ip, 4.0 h): 100 mg/kg

c1ccc2c(c1)ccc1c3c(ccc12)CCC3
non-protective dose (adrenal apoplexy prevention; rat; oral, with: 7,12-DMBA 5 mg i.v.): 1 mg

CN1CCN(c2ccc(Nc3ncc4cc5n(c4n3)C3(CCCCC3)CNC5=O)nc2)CC1
onset of reduced HSC proliferation (refers to: EdU incorporation, S/G2/M cells; haematopoietic stem cells, mice; intraperitoneal, 50 or 100 mg/kg): 4 h

CCCCOC(=O)/C=C/c1ccc(O)c(O)c1
radical scavenging (DPPH; ethanol; 20 µM, 30 min, room temperature): 63%

COc1ccc(-c2nc3ccccc3s2)cc1OCc1nnc(-c2ccc(N)cc2)o1
minimal effective dose (seizure protection; albino mouse, scPTZ-induced seizure; ip, 4.0 h): 100 mg/kg

COc1cc2nccc(Oc3ccc(NC(=O)c4cc5c(n(-c6ccccc6)c4=O)CCCC5=O)nc3)c2cc1OC
apoptotic cells (immunohistochemistry, refers to: cleaved caspase-3; MOLM-13 luc/gfp xenograft, mouse AML xenograft, spleen; oral feed, 0.013% in feed; baseline: control food): > 2 fold

COc1ccc(-c2nc3ccccc3s2)cc1OCc1nnc(-c2ccc(Cl)cc2)o1
minimal effective dose (hind limb tonic extension; albino mouse, MES-induced seizure; ip, 0.5 h): 100 mg/kg

CN(Cc1cc(Br)cc(Br)c1N)C1CCCCC1
mice with metastasis (ICR SCID mice, TRAMP cells iv, lung; 30 mg/kg, 8 weeks; baseline: vehicle): 33%

O=C1NC(=O)C(c2ccccc2)(c2ccccc2)N1
minimal effective dose (hind limb tonic extension; albino mouse, MES-induced seizure; ip, 4.0 h): 30 mg/kg

insulin aspart
AUC glucose infusion rate (euglycaemic clamp; type 1 diabetes patients; subcutaneous, 0.2 U/kg single, 0-60 min, antibody quartile 3, 6.65-15.68 %B/T): 119 mg/kg

Nc1cc2c3ccccc3ccc2c2ccccc12
menadione reductase activity (inducer; female rat, liver; oral, 10 mg, 24 h, sesame oil vehicle): 100 enzyme units

For quick reference, copied from above:
COc1ccc2c(c1)c(CC(=O)O)c(C)n2C(=O)c1ccc(Cl)cc1
cytokine level (multiplex bead immunoassay, refers to: IL-1β; CD-1 mice, serum; ip, 20 mg/kg, three-injection regimen, with: LPS 3 mg/kg): 4.9 ± 1.5 pg/mL

Nc1cc2c3ccccc3ccc2c2ccccc12
menadione reductase activity (inducer; female rat, liver; oral, 10 mg, 24 h, sesame oil vehicle): 100 enzyme units
